Experimental data gathered from unrelated publications.
A part holds a random share of what one study measured. Positions count from the first letter of the parent shown.

Set 1 — target: NFE2L3, bZIP domain (human); technique: DHFR protein complementation; medium: yeast; reference: wild-type JUN-FOS pair; direction: higher = stronger binding
Setting: single substitutions, most at no-binding floor
Parent: JUN, bZIP domain (human); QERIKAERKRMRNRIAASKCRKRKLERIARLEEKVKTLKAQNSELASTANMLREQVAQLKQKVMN; partner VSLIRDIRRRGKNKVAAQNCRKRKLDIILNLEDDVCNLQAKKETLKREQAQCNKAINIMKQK
The binding fitness of `S47T` is reported as -1.31 natural log.
For `I28V`, the binding fitness was -1.22 natural log.
For `E54W`, the binding fitness was -1.54 natural log.
`L31G` has a binding fitness of -1.46 natural log.
`N42S` has a binding fitness of -1.52 natural log.
For `A29V`, the binding fitness was -1.35 natural log.
`A40W` has a binding fitness of -1.5 natural log.
`E44R` has a binding fitness of -1.41 natural log.
For `E33Q`, the binding fitness was -1.42 natural log.
`L45Y` has a binding fitness of -1.19 natural log.
`N42W` has a binding fitness of -1.45 natural log.
`E33A` has a binding fitness of -1.43 natural log.
With `L52M` the binding fitness was -1.51 natural log.
For `L52A`, the binding fitness was -1.56 natural log.
`R30M` has a binding fitness of -1.35 natural log.
`K36H` gave a binding fitness of -1.2 natural log.
For `L31R`, the binding fitness was -1.52 natural log.
`L52G` has a binding fitness of -1.44 natural log.
`A46F` gave a binding fitness of -1.47 natural log.
`A49Y` has a binding fitness of -1.35 natural log.
For `K39T`, the binding fitness was -1.51 natural log.
With `M51L` the binding fitness was -1.55 natural log.

Set 2 — technique: RNA Bind-n-Seq; molecule type: RNA; medium: in vitro; tested at: not given; setting: RNA with constant flanks, ends assumed; reference: input RNA pool; direction: higher = stronger binding
Target: RING finger protein unkempt homolog, zinc fingers 1-6, GST-SBP tag (UNK, Homo sapiens, UniProt Q9C0B0, residues 30-357)
Shared flanks, not repeated: GGGAGUUCUACAGUCCGACGAUC … CAACAGAGGAUUGAGCAUCA
Residues (chain): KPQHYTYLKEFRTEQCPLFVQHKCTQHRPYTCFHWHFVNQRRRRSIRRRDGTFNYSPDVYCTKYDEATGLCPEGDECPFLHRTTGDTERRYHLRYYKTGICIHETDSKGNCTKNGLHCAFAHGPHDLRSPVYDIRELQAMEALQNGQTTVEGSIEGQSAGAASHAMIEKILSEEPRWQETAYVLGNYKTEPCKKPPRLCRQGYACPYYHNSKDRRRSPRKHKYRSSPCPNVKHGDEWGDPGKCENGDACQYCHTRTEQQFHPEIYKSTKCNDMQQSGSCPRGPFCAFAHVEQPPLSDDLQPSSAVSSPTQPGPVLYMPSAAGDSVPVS
The bound/input enrichment of `UCUGUUCGGAACCCCAGAGCACGAGUAGUAGUCUUAAGAGUAAAGCUUUCCAGUUUGAAUUCCGAUGAUCACGCAAAGAAGAAAUUAAUUAAACUUGUAGGAGAGCGAUACUGCAAGACC` is reported as 0.38 ratio.
`CCUCUUUUCCAGUCUCAUGUUGAAGAUCUUUAUGUAGAAGGACUUCCUGAAGGAAUUCCUUUCCGAAGGCCAUCUACUUACGGAAUUCCUCGCCUGGAGAGGAUAUUACUUGCAAAGGAA` gave a bound/input enrichment of 0.198 ratio.
The bound/input enrichment of `UUAUACCAAGUUGAAUAUGCCAUGGAAGCUAUUGGACAUGCAGGCACCUGUUUGGGAAUUUCCGCAAAUGAUGGUGUUUUGCUUGCAGCAGAGAGACGCAACAUCCACAAGCUUCUUGAU` is reported as 0.112 ratio.
`UUGGACAUCCUCCUUCAGGAUACCACCAAAGAACCUUUGGAUCUGCCUGACAACCCCCGCAACCGGCAUUUUACCAACAGCGUGCCUAACCCUAGGAUCUCAGAUGCUGAACUUGAAGCU` has a bound/input enrichment of 0.144 ratio.
`UUUCUUCCCCCUACCUCUGUGGCUGGUGCCACUCUGUACUCAGUGGCAAUGUAUGGUGGAUCCGUUCUUUUCAGCAUGUUCCUUCUGUAUGAUACUCAGAAAGUAAUCAAACGUGCAGAA` gave a bound/input enrichment of 0.396 ratio.
The bound/input enrichment of `GGUAAGCUCAUCGCAGUGAUCGGAGACGAGGACACGGUGACUGGUUUCCUGCUGGGCGGCACCGGGGAGCUUAACAAGAACCGCCAUCCCAAUUUCCUGGUGGUGGAGAAGGAUACAACC` is reported as 0.168 ratio.
For `AUAUAUAUUCACUUGCAUUCAUGCAGAACACAAGCUUUGCUGUACAAAAUGUUGUGUUUCUCCGUGAUUUUAAAAGGCAUGCUUUGCAUGCAAAGGAAAACCAUUGCAGUUAGUCUUUUC`, the bound/input enrichment was 0.669 ratio.
`GAUAUAGAAGUGAGACAUGCACUCAACUAUAAUCAGAGACAAUUGAAAGAACUGAAAGACCGUAAAACUGAUCGACUAAAAAGAUUUGGUCCUCAUGUUCCAGCUCUUCUGGAAGCAAUA` gave a bound/input enrichment of 0.167 ratio.
For `CAUUUAGCAUCAUUUGGGAAAGUCAAGCAGUGUGUGAAUUUUGUGAUUGGACUUUUGAAAUCCGGUGGGCUGAUUAAUUUUUUGAUUUUCCUUCAGAGGGGAAAGUUUGCAACUUUGACA`, the bound/input enrichment was 0.396 ratio.
`AUUAUUCAGGUUGAUAAAGCCUAUGACUACCUCGUUCAGAAUACAUCAUUUGCUAAUAAAUCCGGUUUUACUGUUACUGUUGGAAAUAACCGUGGCAUCUACCUCCGAGAUCCUGUUCAG` gave a bound/input enrichment of 0.0897 ratio.
For `AGCUUGCCCAGUUGACCCGAAAAAUAGGACUUUUUAGAAUUGCAUUGCCACUUCUAAAAUCCCCGCAAUACUUAGAAUAACACAUCAGUGAGAUAAAUUUUACUCAAUUAUUUUACAAAC`, the bound/input enrichment was 22.8 ratio.

Set 3 — target: CCNB2, cyclin fold, Cln2 fusion (human); technique: yeast growth competition, sequencing; medium: yeast; setting: strong parent motif; reference: not given; direction: higher = stronger binding
Parent: BRCA2 docking peptide (human); PSIKRNLLNEFDR; partner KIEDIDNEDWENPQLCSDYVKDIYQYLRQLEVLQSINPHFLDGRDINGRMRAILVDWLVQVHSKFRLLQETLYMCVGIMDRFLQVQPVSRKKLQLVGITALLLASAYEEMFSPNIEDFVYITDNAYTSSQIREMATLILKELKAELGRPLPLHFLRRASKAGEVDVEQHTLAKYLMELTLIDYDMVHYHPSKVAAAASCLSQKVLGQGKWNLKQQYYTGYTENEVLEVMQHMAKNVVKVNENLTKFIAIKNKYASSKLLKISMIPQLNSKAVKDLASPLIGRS
`K4Y` — result for “normalised enrichment score”: 1.29.
`R13H`: “normalised enrichment score” 3.18.
`P1H` — result for “normalised enrichment score”: 3.78.
`K4T` — result for “normalised enrichment score”: 1.54.
Under “normalised enrichment score”, `K4E` is recorded as 1.29.
`L7C`: “normalised enrichment score” 0.0298.
`I3H`: “normalised enrichment score” 0.658.
`S2P`: “normalised enrichment score” 3.5.
`N6T`: “normalised enrichment score” 1.09.
Under “normalised enrichment score”, `R13W` is recorded as 3.84.
Under “normalised enrichment score”, `E10P` is recorded as 0.391.
Under “normalised enrichment score”, `F11A` is recorded as 0.776.
`S2M`: “normalised enrichment score” 3.25.
`N9L` — result for “normalised enrichment score”: 3.66.
Under “normalised enrichment score”, `R5V` is recorded as 2.18.
For `D12V`, “normalised enrichment score” read 3.3.
Under “normalised enrichment score”, `N6A` is recorded as 1.41.
For `K4D`, “normalised enrichment score” read 0.495.
`I3E`: “normalised enrichment score” 1.09.
`F11H`: “normalised enrichment score” 0.263.
`R5G`: “normalised enrichment score” -0.104.
`D12C`: “normalised enrichment score” 3.
`L8M`: “normalised enrichment score” 3.76.
`P1R`: “normalised enrichment score” 3.21.

Set 4 — technique: RNA Bind-n-Seq; molecule type: RNA; medium: in vitro; tested at: 1 µM; setting: whole 134-nt RNA, ends assumed; together with: 150 mM KCl; reference: input library; direction: higher = stronger binding
Target: Ras GTPase-activating protein-binding protein 1, C-terminal RGG region (G3BP1, Homo sapiens, UniProt Q13283)
Sequence of UniProt Q13283 (whole entry, looked up): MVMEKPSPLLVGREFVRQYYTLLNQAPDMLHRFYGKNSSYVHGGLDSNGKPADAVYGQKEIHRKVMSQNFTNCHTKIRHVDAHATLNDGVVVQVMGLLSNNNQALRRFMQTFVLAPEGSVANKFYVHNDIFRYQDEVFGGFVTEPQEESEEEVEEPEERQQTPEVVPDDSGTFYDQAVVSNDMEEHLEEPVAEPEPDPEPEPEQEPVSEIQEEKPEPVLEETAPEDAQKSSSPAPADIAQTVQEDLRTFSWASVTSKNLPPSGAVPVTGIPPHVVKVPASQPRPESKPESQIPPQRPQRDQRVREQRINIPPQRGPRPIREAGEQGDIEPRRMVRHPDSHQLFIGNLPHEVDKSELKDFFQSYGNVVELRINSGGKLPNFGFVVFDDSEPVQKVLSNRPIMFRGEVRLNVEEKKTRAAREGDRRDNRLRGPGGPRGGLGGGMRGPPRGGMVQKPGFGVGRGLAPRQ
Shared flanks, not repeated: GGGAGUUCUACAGUCCGACGAUC … UGGAAUUCUCGGGUGUCAAGG
`UGCUGCGGAAGGGCUCUGGCACUCUGUGUGAGGCCUUGCUGAUGGUGCAGGCCUUCCACGCCAACAUCAUCUUCCCCAACAAGCAAGAGC` gave a log2 enrichment of -0.734.
`CCUCAAGUCCUGUGCUACACAUCGUAUGUACCGAAUCGGCGGCGGGGCGGGGAAAGUAUUAUGUUACGCCGUUCGGAUCUGCACUUCCAG` gave a log2 enrichment of -0.421.
For `AAGUCCUGUGCUACACAUCGUAUGUACCGAAUCGGAAAAAAAGGAAAGGAAAAAGGAAAGUAUUAUGUUACGCCGUUCGGAUCUGCACUU`, the log2 enrichment was -2.06.
`UCAAGUCCUGUGCUACACAUCGUAUGUACCGAAUCGGGCCCGGCCCGGGCCCGGGAAAGUAUUAUGUUACGCCGUUCGGAUCUGCACUUC` gave a log2 enrichment of -2.1.
For `CCUCAAGUCCUGUGCUACACAUCGUAUGUACCGAAUCGGGCCGGCCGGCCGGAAAGUAUUAUGUUACGCCGUUCGGAUCUGCACUUCCAG`, the log2 enrichment was -0.913.
`UCAAGUCCUGUGCUACACAUCGUAUGUACCGAAUCGGGGUUGGUUGGGGUUGGGGAAAGUAUUAUGUUACGCCGUUCGGAUCUGCACUUC` has a log2 enrichment of 0.134.
With `UUAGUGAAUGUAUAGAAGGAGUAAAGGUAGAGCACAAUCCUGACCUGUCAGUUACUGUCAGCACCAAAAAAUCCCACCAGACAUGGACCU` the log2 enrichment was -0.82.
`CAAGUCCUGUGCUACACAUCGUAUGUACCGAAUCGGGUGGGAGGGAAAAAAAGGGAAAGUAUUAUGUUACGCCGUUCGGAUCUGCACUUC` gave a log2 enrichment of 0.152.
For `UAACUUUAGAGGAGGAUCUGAUGGAUCUGGCAGUGGACGUGGAUUUGGGGAUGGCUAUAAUGGGUAUGGAGGAGGACCUGGAGGUGGCAA`, the log2 enrichment was -1.49.
For `CCUCAAGUCCUGUGCUACACAUCGUAUGUACCGAAUCGGUGGAGGAAAAAGGAAAGUAUUAUGUUACGCCGUUCGGAUCUGCACUUCCAG`, the log2 enrichment was -0.702.
`UGCCUCGGGAGGAGCUGUUUGUGACAUCCAAGCUGUGGAACACCAAGCACCACCCCGAGGAUGUGGAGCCUGCCCUCCGGAAGACUCUGG` gave a log2 enrichment of -1.86.
With `UAACUUUUGAGGAGGAUCUGAUGGAUAUGGCAGUGGACGUGGAUUUGGGGAUGGCUAUAAUGGGUAUGGAGGAGGACCUGGAGGUGGCAA` the log2 enrichment was -1.03.
For `UCAAGUCCUGUGCUACACAUCGUAUGUACCGAAUCGGGAGGGAAAAAGGGAGGGAAAGUAUUAUGUUACGCCGUUCGGAUCUGCACUUCC`, the log2 enrichment was 2.05.
For `AAGUCCUGUGCUACACAUCGUAUGUACCGAAUCGGAAAAAGGAAAAAGGAAAAAGGAAAGUAUUAUGUUACGCCGUUCGGAUCUGCACUU`, the log2 enrichment was -1.91.

Set 5 — technique: protein binding microarray; molecule type: double-stranded DNA, one strand shown; medium: in vitro; tested at: not given; reference: not given; direction: higher = stronger binding
Target: Histone acetyltransferase KAT6A, winged helix 1, GST fusion (KAT6A, Homo sapiens, UniProt Q92794, residues 1-85)
Setting: 8-mer, flanks averaged, mean of 2 arrays, mostly near background
Construct (chain): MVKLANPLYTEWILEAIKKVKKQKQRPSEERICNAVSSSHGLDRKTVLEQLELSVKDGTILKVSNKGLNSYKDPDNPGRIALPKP
`CAGACCTA` gave an E-score of -0.0619.
For `AAACTAGG`, the E-score was -0.085.
The E-score of `GTCTAGAC` is reported as -0.059.
`GGAAGCCA` has an E-score of -0.00351.
`CTTTCACC` gave an E-score of -0.0175.
`ATTTTCAA` has an E-score of -0.219.
The E-score of `ATTTTCAC` is reported as -0.0201.
`ACACGACG` gave an E-score of 0.0703.
`AGCTGTCC` has an E-score of -0.164.
With `CGACGAAC` the E-score was 0.153.
`CGATGCGA` gave an E-score of 0.0622.
With `GTGAACCA` the E-score was -0.0952.
For `CGTTCAGA`, the E-score was 0.0386.
With `CAGATGCC` the E-score was -0.101.
The E-score of `ATTACGAG` is reported as -0.0223.
With `AAATTTGA` the E-score was -0.193.
